Assay results pooled from the literature.
Numbered parts are unrelated; each lists some results of a single study. Positions count from the first letter of the parent shown.

Sample 1
Target: RNA binding protein fox-1 homolog 2, RRM domain, GST-SBP tag (RBFOX2, Homo sapiens, UniProt O43251-10, residues 100-194)
Technique: RNA Bind-n-Seq
Form: RNA
Sample: in vitro
Concentration: 365 nM
Setting: natural RNA segment, single round, ends assumed
Relative to: no-protein control
Direction: higher = stronger binding
Residues (chain): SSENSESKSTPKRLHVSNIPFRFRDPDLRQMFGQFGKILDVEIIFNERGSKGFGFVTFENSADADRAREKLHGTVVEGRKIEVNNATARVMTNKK
`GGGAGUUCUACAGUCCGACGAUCUUGACACAGGGGCAGAAGAAACCCCAGAUGUCCCAGAUGUCCCAGAACAUCAGCCCAAAAGACAGAAGAUUUUAUCACUCAUCUACCCCAAAGAUAAAGUUGUAUUUUUUUGGAAUUCUCGGGUGCCAA` — result for “RBNS enrichment (R)”: 0.504.
`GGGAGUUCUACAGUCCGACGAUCAUGGUGUCCACACUGACUACAUUGUCCCCAACCUGUUUUGGUAGACACACCAGCUCCUGUUGGGAUGGAUGGCCCGGAUUUUAUGGCAUCUGGAACAUGGGCACAGAGAGUGGAAUUCUCGGGUGCCAA`: “RBNS enrichment (R)” 0.421.
Under “RBNS enrichment (R)”, `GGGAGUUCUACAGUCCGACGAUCUGUUGUUGACACCUGUAUUUAAUGACACCUGCACACCUUUCAAAUAAAAACAUGUUUUUCUUCAAGUCUCUGUGUAUUCAAAUCAAUUUUGUGUGUGUGCCGAUAUUGGAUGGAAUUCUCGGGUGCCAA` is recorded as 0.405.
For `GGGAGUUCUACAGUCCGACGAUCGUUUUCCGAUGAUGAGCUUCCCUAGACAGAUCAUGCUCCACGUCCACGGUGUUCUCAGCACCGUGAUCUGUCAGCUGUGCUCUCUUAGCCUCCAGCCUGAGCUCUCAAGAUGGAAUUCUCGGGUGCCAA`, “RBNS enrichment (R)” read 0.289.
`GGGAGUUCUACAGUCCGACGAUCUCUCUCUUGCUGAAUGCACAUAUGUGCACACAUGUCAGCAUGUGCAUGCUCACUCCCCCACUUCUCACCUGCCAACAUCCUGGCCUCUGGCCGUGGCACUGGUGCCAGUAUGGAAUUCUCGGGUGCCAA` — result for “RBNS enrichment (R)”: 8.84.
`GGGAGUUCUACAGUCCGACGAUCAGGGGCUGGGAAGGGCUACUGAAGGCCCCAUUCUCCCACAGGAUGGUGAGGCUGGGAGGAGGAAGACUGAGGUAGAGAUUCCAGGCCCUGGCAUAAGCUGAAUCCCAAAUUGGAAUUCUCGGGUGCCAA`: “RBNS enrichment (R)” 0.83.
`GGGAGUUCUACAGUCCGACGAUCGGCCAGGGUGGUCUGCUUAGCCAGGAAAGGGCAAGUGCCUUCCCCUCGGCCACACUGCCCCUUGUGGCCUUCUCGGGACAUGUGGUAACUGACUUGCUCUCAGGCCCACCUGGAAUUCUCGGGUGCCAA`: “RBNS enrichment (R)” 0.278.
`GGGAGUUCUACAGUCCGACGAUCAGACAGCAUUCCUCGGGAACCCGUGAAACUGGUUCUCUCUCUACCAAAUGGAGUCAUUCUCCUUACUUCUGGCAGAAGGGUCAUAGCUCUCCCAGUAGUAGACCUGUGGUUGGAAUUCUCGGGUGCCAA`: “RBNS enrichment (R)” 0.23.

Sample 2
Target: CCND2, cyclin fold, Cln2 fusion (human)
Technique: yeast growth competition, sequencing
Sample: yeast
Setting: weak parent motif
Relative to: not given
Direction: higher = stronger binding
Parent: BRCA2 docking peptide (human); CKKRRALDFLSRL
Under “normalised enrichment score”, `K2A` is recorded as 0.267.
`S11A` — result for “normalised enrichment score”: 0.262.
Under “normalised enrichment score”, `L7A` is recorded as 0.0988.
`F9L`: “normalised enrichment score” -0.478.
`R12A` — result for “normalised enrichment score”: 0.818.
`C1A`: “normalised enrichment score” -0.215.
`R4A`: “normalised enrichment score” 0.157.

Sample 3
Target: RING finger protein unkempt homolog, zinc fingers 1-6, GST-SBP tag (UNK, Homo sapiens, UniProt Q9C0B0, residues 30-357)
Sequence of UniProt Q9C0B0 (30-357, looked up): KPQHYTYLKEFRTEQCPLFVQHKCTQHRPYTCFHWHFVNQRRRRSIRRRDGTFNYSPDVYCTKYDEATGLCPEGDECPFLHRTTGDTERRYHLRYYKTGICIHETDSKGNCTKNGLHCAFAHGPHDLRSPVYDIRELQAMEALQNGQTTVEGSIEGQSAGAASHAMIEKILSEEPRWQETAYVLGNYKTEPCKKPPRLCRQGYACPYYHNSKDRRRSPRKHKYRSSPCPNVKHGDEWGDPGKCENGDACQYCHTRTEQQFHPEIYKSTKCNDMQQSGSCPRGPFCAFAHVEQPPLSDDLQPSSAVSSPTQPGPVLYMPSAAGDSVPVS
Technique: RNA Bind-n-Seq
Form: RNA
Sample: in vitro
Concentration: not given
Setting: RNA with constant flanks, human-mouse chimeric sites, ends assumed
Relative to: input RNA pool
Direction: higher = stronger binding
`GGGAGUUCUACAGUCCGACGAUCAUGGAACAUUUCGAUGCGUCACUCAGUACCUAUUUCAAGGCCUUCCUGGGCCCCCGAGAUACAAGAGUCAAAGGAUGGUUCCUCCUGGACAAUUACAUACCCACAUUUGUCUGUUCUGUUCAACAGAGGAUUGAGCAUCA` gave a bound/input enrichment of 0.0842 ratio.
The bound/input enrichment of `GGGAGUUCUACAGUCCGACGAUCCUCAUGGCUGCAGAAACAGGAAGUGGAAAAACUGGUGCAUUUAGUAUUCCCGUUAUCCAGAUAGUUUAUGAAACUCUGAAAGACCAACAGGAAGGCAAGAAAGGGAAAACAACUAUUAAACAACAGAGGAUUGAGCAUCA` is reported as 0.834 ratio.
The bound/input enrichment of `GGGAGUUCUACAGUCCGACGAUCUUGGAAGGACCAGAGCCUAAUCAACUGAAACCACUAGUUAUACAGGCUAUGCCCACCCUAAUAGAACUAAUGAAAGACCCCAGUGUAGUUGUUCGAGACACAACAGCGUGGACUGUGGGCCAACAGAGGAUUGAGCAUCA` is reported as 0.807 ratio.
The bound/input enrichment of `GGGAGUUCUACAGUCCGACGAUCCCCACGCCUCCUCUCCCACAGGCCCAAGAUAUAACCCACCAGUGCCUUUUGUCUUCCCGUUAGCUUUGUCAAUCACGCCUGUCCUCUCACGCCCACACCAAGUGCCCAAAGUGGGGAGGGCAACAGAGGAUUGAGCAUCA` is reported as 15.6 ratio.
For `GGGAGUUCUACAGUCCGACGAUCAUGGAACAUUUCGAUGCGUCACUCAGUACCUAUUUCAAGGCCUUCCUAGGCCCUCGAGAUACAAGAGUCAAAGGAUGGUUCCUCCUGGACAAUUACAUCCCUACGUUUAUCUGCUCUGUUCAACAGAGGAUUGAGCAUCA`, the bound/input enrichment was 0.0642 ratio.
`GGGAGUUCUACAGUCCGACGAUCAAACAUCUGUCUUUAAGCAUUCCAAGCGAGAAUGCUGGGGUGAUCAUUGUUGCCCAUGUGCCUUCUGACUGAGCUUUUAAUUAAUUGCAUGUUACAUCUUUCCUUCACUCCAGAAUUGUUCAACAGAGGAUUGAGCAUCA` has a bound/input enrichment of 0.241 ratio.
For `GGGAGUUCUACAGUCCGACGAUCGUUGCCAGCUUCCGGUUCCGUUGGGCUCGGUUCUCUCAGUGCUACGUUGUCUCUACGCUCUCAAUCCCGGUUGGGUAAAACAUGGAUCAGGUAAUGCAGUUUGUGGAGCCCAGCCGGCAGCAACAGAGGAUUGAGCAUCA`, the bound/input enrichment was 0.105 ratio.
With `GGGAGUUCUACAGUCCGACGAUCUACUCAACUUUCUUGCCACGUUUUGAAUUCCAAGACAUUAUUCCUCCAGAUGACUUCCUAACGAGUGAUGAAGAGCAAGAUUUGGUUUUAUUUGGAAGUUUGAGAGGACAAGUUGUUGGACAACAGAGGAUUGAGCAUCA` the bound/input enrichment was 0.188 ratio.

Sample 4
Target: Histone acetyltransferase KAT6A, both winged helices, GST fusion (KAT6A, Homo sapiens, UniProt Q92794, residues 1-181)
Technique: protein binding microarray
Form: double-stranded DNA, one strand shown
Sample: in vitro
Concentration: not given
Setting: 8-mer, flanks averaged, mean of 2 arrays, mostly near background
Relative to: not given
Direction: higher = stronger binding
Target sequence (chain): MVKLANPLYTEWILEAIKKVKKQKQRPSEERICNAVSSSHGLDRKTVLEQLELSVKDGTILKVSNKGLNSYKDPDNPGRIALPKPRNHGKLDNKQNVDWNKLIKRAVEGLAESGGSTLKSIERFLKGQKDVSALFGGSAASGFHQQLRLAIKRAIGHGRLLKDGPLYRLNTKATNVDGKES
For `GCTTAAAC`, the E-score was 0.11.
`CAGCCTTA` has an E-score of -0.176.
`AGGGTGGC` gave an E-score of -0.125.
`ATCGGTAA` gave an E-score of 0.0837.
For `CGCCTATA`, the E-score was 0.202.
The E-score of `CCTGTTCA` is reported as -0.232.
With `GTAACCAA` the E-score was -0.0752.
`TGCATAAA` has an E-score of -0.161.
The E-score of `AATACGTG` is reported as -0.0441.
The E-score of `CTTTTGCA` is reported as -0.0641.
`AAGACACA` has an E-score of -0.142.
`AACGCTGA` has an E-score of 0.0763.
The E-score of `GCGCTTAA` is reported as 0.199.
With `AGTGACGC` the E-score was 0.158.
`CTGAACAG` has an E-score of -0.181.
For `TAATCTGA`, the E-score was -0.096.
For `CCCTGATA`, the E-score was -0.294.
For `TTAGTCAA`, the E-score was -0.0408.
For `AGACAGGC`, the E-score was -0.0399.
With `ACGCGGGC` the E-score was 0.245.
`ACGGGACC` gave an E-score of 0.233.
For `CGCGCAAG`, the E-score was 0.313.
With `CTCAGGCA` the E-score was -0.154.
`AGTTTGTC` has an E-score of -0.11.
For `AATTACCT`, the E-score was -0.064.

Sample 5
Target: ABI1, truncated, D143A, DHFR fusion (Arabidopsis thaliana)
Technique: DHFR PCA, deep sequencing
Sample: yeast
Setting: methotrexate growth selection, single substitutions
With: (+)-ABA 200 µM
Relative to: wild-type fitted maximum
Direction: higher = stronger binding
Parent: PYL1, truncated, DHFR fusion (Arabidopsis thaliana); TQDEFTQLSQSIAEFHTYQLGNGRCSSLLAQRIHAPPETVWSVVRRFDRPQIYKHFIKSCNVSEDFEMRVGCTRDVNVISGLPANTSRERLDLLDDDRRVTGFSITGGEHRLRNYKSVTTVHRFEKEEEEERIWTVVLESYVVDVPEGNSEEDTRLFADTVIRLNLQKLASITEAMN; partner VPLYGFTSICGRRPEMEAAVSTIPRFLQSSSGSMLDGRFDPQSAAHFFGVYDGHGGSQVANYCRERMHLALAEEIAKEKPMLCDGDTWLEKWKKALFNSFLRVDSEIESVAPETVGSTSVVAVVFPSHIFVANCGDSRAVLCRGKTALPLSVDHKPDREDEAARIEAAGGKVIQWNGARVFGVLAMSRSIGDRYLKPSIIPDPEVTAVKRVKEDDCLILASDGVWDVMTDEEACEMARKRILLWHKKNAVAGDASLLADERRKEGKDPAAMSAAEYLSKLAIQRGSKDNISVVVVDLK
`E127H`: “relative binding score” 100%.
Under “relative binding score”, `F56W` is recorded as 97.7%.
For `K58I`, “relative binding score” read 61.4%.
`I12V`: “relative binding score” 95.8%.
`S117D`: “relative binding score” -4.57%.
`A13Y`: “relative binding score” 87.6%.
For `A35M`, “relative binding score” read 62.2%.
`L20H`: “relative binding score” 98%.
For `N77K`, “relative binding score” read 106%.
For `E125D`, “relative binding score” read 99.7%.
`P50Q`: “relative binding score” -0.531%.
For `P37S`, “relative binding score” read 81.5%.
For `D92L`, “relative binding score” read 59.4%.
Under “relative binding score”, `T120W` is recorded as -5.64%.
`V44E`: “relative binding score” 2.49%.
Under “relative binding score”, `F124I` is recorded as 109%.

Repeated from above (sample 5):
`L20H`: “relative binding score” 98%.
For `N77K`, “relative binding score” read 106%.
For `E125D`, “relative binding score” read 99.7%.
`P50Q`: “relative binding score” -0.531%.
